# Results gathered from unrelated publications.
# Lines come from different studies, so protocols differ. ± marks the error that the study gave.
Structure (SMILES),cell line,test,conditions,how to read,viability [%]
O=c1[nH]cc(C(c2cccc(Cl)c2)c2c[nH]c(=O)[nH]c2=O)c(=O)[nH]1,Mo7e,"cell growth or viability, WST-1","1 µg/mL, 24 h",,> 90
CC(C)=CCc1c2c(c(O)c3c(=O)c(-c4ccc(O)cc4)coc13)CC(C(C)(C)O)O2 (stereo not shown),SW480,"cell growth or viability, MTT",100 µg/mL,,8.78
C=CS(=O)(=O)NCCCCCCCCOCc1cn(CCCCCCCCNS(=O)(=O)C=C)nn1,L929,"cell growth or viability, resazurin","50 µM, 72 h",,1.2
Cc1ccc(C(C)C)cc1.Cc1ncc(CO)c(C=NNC2=Nc3ccccc3-c3[nH]c4ccc(Br)cc4c3C2)c1O.[Cl-].[Cl][Ru+],SW480,annexin V/PI flow cytometry,"5 µM, 48 h",,56
C[C@@H]1Cc2cc(C(=O)C3=C(O)C(=O)N(CCc4ccccc4)[C@@H]3c3cccc(OCc4ccccc4)c3)ccc2O1,HUVEC,MTT,"up to 100 µM, 24 h, serum-free, 0.05% BSA",,> 75
Cc1ccc(C(C)C)cc1.Oc1ccccc1C=NNC1=Nc2ccccc2-c2[nH]c3ccc(Br)cc3c2C1.[Cl-].[Cl][Os+],SW480,annexin V/PI flow cytometry,"5 µM, 48 h",,63
O=c1[nH]cc(C(c2cccc(C(F)(F)F)c2)c2c[nH]c(=O)[nH]c2=O)c(=O)[nH]1,Mo7e,"cell growth or viability, WST-1","1 µg/mL, 24 h",,> 90
C=CS(=O)(=O)NCCCCOCc1cn(CCCCNS(=O)(=O)C=C)nn1,L929,"cell growth or viability, resazurin","50 µM, 72 h",,87.8
CCC(=O)NCc1ccccc1,DH82,"cell growth or viability, MTT","200 µM, 24 h",,98.6
CNc1ccc(-c2nc3ccc(O)c(CN4CCN(C)CCN(C)CC4)c3s2)cn1,N2a,,"10 µM, 40 h, added: Aβ42 20 µM + CuCl2 20 µM",reference: DMSO control,≤ 80
C=CC(=O)Nc1cccc2c1cc(C)n2-c1nc2c(c(NCc3ccccc3)n1)CCCC2,"Huh-7 cells, uninfected",,"0.5 µM, 5 days",,57 ± 4
CC12CCCC(n3cc(C(=O)N4CCCC(N)C4)nn3)(C1)C1CC(C)(C)C1CC2 (stereo not shown),HT-29,,"0.5 µM, 72 h, added: Z-VAD-FMK pretreatment 8 h",,96
COc1ccc([C@@H]2CC(=O)c3c(O)cc(O[C@@H]4O[C@H](CO[C@@H]5O[C@@H](C)[C@H](O)[C@@H](O)[C@H]5O)[C@@H](O)[C@H](O)[C@H]4O)cc3O2)cc1O,MRC5,"cell growth or viability, MTS","100 µg/mL, 72 h",,67.7
COc1cc2c(cc1O)[C@]1(O)C(=O)c3c(O)cc4c(c3O[C@@H]1CO2)C=CC(C)(C)O4,SW480,"cell growth or viability, MTT",12.5 µg/mL,,159
C=CS(=O)(=O)NCCCCCCCCCCOCc1cn(CCCCCCCCCCNS(=O)(=O)C=C)nn1,L929,"cell growth or viability, resazurin","50 µM, 72 h",,0.9
COc1ccc(-c2coc3c(CC=C(C)C)c(O)c(CC=C(C)C)c(O)c3c2=O)cc1O,SW480,"cell growth or viability, MTT",50 µg/mL,,12.6
N#Cc1c(NC(=O)CCl)sc2c1CCC(c1ccccc1)C2 (stereo not shown),LoVo,"cell growth or viability, LDH","100 µg/mL, 24 h",,77
COc1ccc([C@@H]2CC(=O)c3c(O)cc(O[C@@H]4O[C@H](CO[C@@H]5O[C@@H](C)[C@H](O)[C@@H](O)[C@H]5O)[C@@H](O[C@H]5O[C@H](CO)[C@@H](O)[C@H](O)[C@H]5O)[C@H](O)[C@H]4O)cc3O2)cc1O,MRC5,"cell growth or viability, MTS","50 µg/mL, 72 h",,72.1
CC(C)=CCc1cc(-c2coc3cc(O)c(CC=C(C)C)c(O)c3c2=O)ccc1O,SW480,"cell growth or viability, MTT",25 µg/mL,,152

# Some of these lines once more:
Structure (SMILES),cell line,test,conditions,how to read,viability [%]
COc1ccc([C@@H]2CC(=O)c3c(O)cc(O[C@@H]4O[C@H](CO[C@@H]5O[C@@H](C)[C@H](O)[C@@H](O)[C@H]5O)[C@@H](O[C@H]5O[C@H](CO)[C@@H](O)[C@H](O)[C@H]5O)[C@H](O)[C@H]4O)cc3O2)cc1O,MRC5,"cell growth or viability, MTS","50 µg/mL, 72 h",,72.1
C=CS(=O)(=O)NCCCCCCCCOCc1cn(CCCCCCCCNS(=O)(=O)C=C)nn1,L929,"cell growth or viability, resazurin","50 µM, 72 h",,1.2
